{"data": "Published values gathered from unrelated publications", "note": "Each line is one published result; not all experiments were run side by side. Values joined by “and” are separate records of one study, mostly repeats; a detail may differ. ± marks the error that the study gave."}
{"SMILES": "CC1(C)CC[C@]2(NC(=O)C(C)(F)F)CC[C@]3(C)[C@H](C(=O)C=C4[C@@]5(C)C=C(C#N)C(=O)C(C)(C)[C@@H]5CC[C@]43C)[C@@H]2C1", "system": "human, plasma", "conditions": "oral, 150 mg once daily, day 17 predose, mean", "quantity": "trough concentration", "result": "37.7 ng/mL"}
{"SMILES": "CCO[C@H]1CCN(Cc2c(OC)cc(C)c3[nH]ccc23)[C@H](c2ccc(C(=O)O)cc2)C1", "system": "human mild hepatic impairment, plasma", "conditions": "oral, 200 mg single dose, median", "quantity": "total Cmax", "result": "3520 ng/mL"}
{"SMILES": "NC1(C(=O)N[C@@H](CCO)c2ccc(Cl)cc2)CCN(c2nc[nH]c3nccc2-3)CC1", "assay": "LC-MS/MS, non-compartmental", "system": "human patients, plasma", "conditions": "160/480 mg cohort, cycle 2, geometric mean, together with: enzalutamide", "quantity": "Tmax", "result": "1.8 h"}
{"SMILES": "C[C@]12C=CC(=O)C=C1CC[C@@H]1[C@@H]2[C@@H](O)C[C@@]2(C)[C@H]1CC[C@]2(O)C(=O)CO", "system": "human, plasma", "conditions": "oral, 20 mg prednisone single dose, together with: lopinavir–ritonavir", "quantity": "median Tmax", "result": "1 h"}
{"SMILES": "NC(=O)N1c2ccccc2C=Cc2ccccc21", "assay": "refers to: total drug-related adverse events", "system": "human male", "conditions": "oral, dose not given, AEs, treatment-related, on drug, CTCAE", "quantity": "adverse events incidence", "result": "67%"}
{"SMILES": "FC(F)(F)c1ccc(CNc2ccc(Cc3c[nH]c4ncc(Cl)cc34)cn2)cn1", "assay": "refers to: maculo-papular rash", "system": "human, advanced solid tumours, non-TGCT cohort", "conditions": "oral, 1000 mg/day, grade 3 or higher", "quantity": "treatment-related adverse events", "result": "0%"}
{"SMILES": "CC(C)(C)c1ccc(O)c(CN(Cc2cc(C(C)(C)C)ccc2O)C2CCC(NC(N)=O)CC2)c1 (stereo not shown)", "system": "human liver microsomes", "conditions": "2000 ng/mL, 3 months, 4 °C, refrigerator storage", "quantity": "recovery", "result": "99.33 ± 0.25%"}
{"SMILES": "CC(C)NCCCC[C@@H]1NC(=O)[C@H](Cc2ccc(O)cc2)NC(=O)[C@H](Cc2ccccc2)NC(=O)CC[C@H](C(=O)N[C@@H](CCCCNC(C)C)C(=O)N[C@@H](CCCCNC(=O)[C@H](CCC(=O)O)NC(=O)[C@H](CCC(=O)O)NC(=O)[C@H](CCC(=O)O)NC(=O)CN2CCN(CC(=O)O)CCN(CC(=O)O)CCN(CC(=O)O)CC2)C(N)=O)NC(=O)CNC(=O)[C@H](Cc2ccc3ccccc3c2)NC(=O)[C@@H](CCCNC(=N)N)NC1=O [gallium-68 labelled]", "system": "mouse with Daudi xenograft, intestine", "conditions": "intravenous, 2 h", "quantity": "tissue uptake", "result": "0.12 %ID/g"}
{"SMILES": "O=C(c1cccnc1-c1ccncc1)N1CCC(O)(Cc2ccccc2)CC1", "system": "healthy Japanese adults, plasma", "conditions": "oral, 600 mg single dose", "quantity": "Vz/F", "result": "2340 L"}
{"SMILES": "CC[C@H](C)[C@H](NC(=O)[C@H](Cc1ccccc1)NC(=O)[C@H](CCC(=O)O)NC(=O)[C@H](CCCCNC(=O)COCCOCCNC(=O)COCCOCCNC(=O)CC[C@H](NC(=O)CCCCCCCCCCCCCCCCC(=O)O)C(=O)O)NC(=O)[C@H](C)NC(=O)[C@H](C)NC(=O)[C@H](CCC(N)=O)NC(=O)CNC(=O)[C@H](CCC(=O)O)NC(=O)[C@H](CC(C)C)NC(=O)[C@H](Cc1ccc(O)cc1)NC(=O)[C@H](CO)NC(=O)[C@H](CO)NC(=O)[C@@H](NC(=O)[C@H](CC(=O)O)NC(=O)[C@H](CO)NC(=O)[C@@H](NC(=O)[C@H](Cc1ccccc1)NC(=O)[C@@H](NC(=O)CNC(=O)[C@H](CCC(=O)O)NC(=O)C(C)(C)NC(=O)[C@@H](N)Cc1cnc[nH]1)[C@@H](C)O)[C@@H](C)O)C(C)C)C(=O)N[C@@H](C)C(=O)N[C@@H](Cc1c[nH]c2ccccc12)C(=O)N[C@@H](CC(C)C)C(=O)N[C@H](C(=O)N[C@@H](CCCNC(=N)N)C(=O)NCC(=O)N[C@@H](CCCNC(=N)N)C(=O)NCC(=O)O)C(C)C", "system": "healthy human", "conditions": "subcutaneous, 1.5 mg once weekly, 0 h, steady state", "how to read": "relative to: placebo, baseline", "quantity": "change in QTcF", "result": "0.2 ms"}
{"SMILES": "CCCCOc1ccc([C@H]2CC[C@H](CCC)CC2)c(F)c1F", "system": "human mother-newborn pairs, maternal serum", "conditions": "female fetuses", "quantity": "median concentration", "result": "5.19 ng/mL"}
{"SMILES": "O=C(Nc1nc2cccc(-c3ccc(CN4CCS(=O)(=O)CC4)cc3)n2n1)C1CC1", "assay": "refers to: blood and lymphatic disorders", "system": "rheumatoid arthritis patients", "conditions": "oral, 75 mg once daily, 4 weeks, any relatedness", "quantity": "treatment-emergent adverse events", "result": "4.5%"}
{"SMILES": "COc1cc2c3c(n(CCCN4CCOCC4)c(=O)c2cc1OC)-c1cc2c(cc1C3=O)OCO2", "system": "beagle dog, female, plasma", "conditions": "intravenous infusion, 430 mg/m^2, 1 h infusion", "quantity": "Vz", "result": "568 L/m² and 954 L/m²"}
{"SMILES": "N#C[C@@]1(c2ccc3c(N)ncnn23)O[C@H](CO)[C@@H](O)[C@H]1O", "assay": "plasma protein binding", "system": "rat plasma", "conditions": "100 µM", "quantity": "bound fraction", "result": 0.0655}
{"SMILES": "C[C@H]1CN(C(=O)CC#N)[C@]12CCN(c1ncnc3[nH]ccc13)C2", "system": "healthy Japanese men, urine", "conditions": "oral, 5 mg, single dose", "how to read": "relative to: dose", "quantity": "fraction excreted unchanged", "result": "79.6%"}
{"SMILES": "COc1ccc2nc(-c3ccccn3)c(N(C)c3ccc(F)cc3)n2c1", "system": "male CD1 mice, fasted, plasma", "conditions": "oral, 50 mg/kg, together with: 1-aminobenzotriazole 50 mg/kg", "quantity": "AUC(0-inf)/AUC(0-last)", "result": "102 ± 0.18%"}
{"SMILES": "CNC(=O)c1cc(Oc2ccc(NC(=O)Nc3cc(C(C)(C)C)nn3-c3ccc4ncccc4c3)c(F)c2)ccn1", "assay": "refers to: worst grade 2", "system": "human", "conditions": "oral, dose not given, cycles 1 and 2, High Cmax subgroup", "quantity": "patients with musculoskeletal disorder AE", "result": "11%"}
{"SMILES": "C=C1C[C@@H]2[C@H](CC[C@]3(C)C(=O)CC[C@@H]23)[C@@]2(C)C=CC(=O)C=C12", "system": "postmenopausal women, serum", "conditions": "oral, 25 mg daily, 1 year, UGT2B17 and GSTA1 genotypes", "quantity": "share of total metabolites", "result": "19%"}
{"SMILES": "O=C(O)CCC(=O)O.[2H]C([2H])([2H])Oc1cc(C)c2[nH]ccc2c1CN1CC[C@@H](C2CC2)C[C@H]1c1ccc(C(=O)O)cc1", "assay": "LC-MS/MS, median", "system": "human, plasma", "conditions": "50 mg, single dose, fasting", "quantity": "Tmax", "result": "4 h"}
{"SMILES": "Cl.[2H]C([2H])([2H])CC(=O)c1cnc(NC(=O)C2CC2)cc1Nc1cccc(-c2ncn(C([2H])([2H])[2H])n2)c1OC", "assay": "geometric mean", "system": "human", "conditions": "oral, 20 mg once daily, day 7, fasted, liquid, multiple dose", "quantity": "Vz/F", "result": "154 L"}
{"SMILES": "COc1cc(N2CCC3(CCN(C)CC3)CC2)ccc1Nc1ncc(Cl)c(Nc2ccccc2P(C)(C)=O)n1", "assay": "population PK model", "system": "human", "conditions": "oral, final model without outliers, unit not given", "how to read": "relative to: fasting", "quantity": "food effect on Ka", "result": 0.627}
{"SMILES": "CC(C)n1c(Nc2cccnc2)nc2cnc(Nc3ccc(N4CCN(C)CC4)cc3)nc21", "system": "human, plasma", "conditions": "dose not given, together with: rifampin", "how to read": "relative to: without rifampin", "quantity": "change in Cmax", "result": "no effect"}
{"SMILES": "CCc1cc(C(=O)NC)c2nccc(N3CCc4c(cc(Cn5ccnc5)cc4-c4cn(C)nc4C(F)(F)F)C3=O)c2c1", "system": "Sprague Dawley rat", "conditions": "oral, 100 mg/kg twice daily, day 4, 7-day toxicology study", "quantity": "body weight", "result": "232 ± 4.9 g"}
{"SMILES": "C=CC(=O)Nc1cc(Nc2nccc(-c3cn(C)c4ccccc34)n2)c(OC)cc1N(C)CCN(C)C", "assay": "storage stability", "system": "human plasma", "conditions": "72 h, on ice, medium QC level", "quantity": "recovery", "result": "79.2%"}
{"SMILES": "C[C@@H](Nc1cc(F)cc(F)c1)c1cc(C(=O)N(C)C)cc2c(=O)cc(N3CCOCC3)oc12", "system": "patients with advanced solid tumours", "conditions": "oral, 240 mg twice daily, monotherapy dose-finding, 2:5 schedule", "quantity": "share of patients with dose reduction", "result": "0%"}
{"SMILES": "Cc1ccc([C@@H]2O[C@H](CO)[C@@H](O)[C@H](O)[C@H]2O)cc1Cc1ccc(-c2ccc(F)cc2)s1", "system": "Japanese type 2 diabetes patients", "conditions": "100 mg, day 5, 24 h urine collection", "how to read": "relative to: baseline", "quantity": "urinary calcium excretion change", "result": "-17.9 mg"}
{"SMILES": "C[C@@H](N)C1CCN(S(=O)(=O)c2cccc3cnccc23)CC1", "system": "healthy volunteers, fasted, plasma", "conditions": "oral, 75 mg", "quantity": "Vz/F", "result": "6020 L"}
{"SMILES": "CC(C)(C(=O)N1CCOc2c(C#N)cncc2C1)C(F)F", "assay": "refers to: Insomnia", "system": "human", "conditions": "oral, 10 mg once daily, 14 days, multiple ascending dose", "quantity": "subjects with adverse event", "result": "0%"}
{"SMILES": "Nc1nc2c(nc([N+](=O)[O-])n2[C@@H]2O[C@H](CO)[C@@H](O)[C@H]2O)c(=O)[nH]1", "system": "citrate phosphate buffer", "conditions": "0.5 mM, pH 7.10, 37 °C", "quantity": "depurination half-life", "result": "22.1 h"}
{"SMILES": "CC(C)C[C@H](NC(=O)CNC(=O)c1cc(Cl)ccc1Cl)B(O)O", "assay": "refers to: Neutropenia", "system": "human newly diagnosed multiple myeloma", "conditions": "oral, dose not given, maintenance, grade 3, onset cycle 17 or later", "quantity": "treatment-emergent adverse events", "result": "0%"}
{"SMILES": "C=CCN1CC(=O)N2[C@@H](Cc3ccc(O)cc3F)C(=O)N(Cc3cccc(N4CC(N5CCN(CC)CC5)C4)n3)C[C@@H]2N1C(=O)NCc1ccccc1", "system": "advanced solid tumour patients", "conditions": "oral, 80 mg twice daily, grade ≥3, dose-escalation", "quantity": "treatment-related nausea", "result": "0%"}
